Published values gathered from unrelated publications.
Parts stem from different laboratories: compare values within a part only. “And” joins repeats or separate records; there may be more than shown.

Series 1
Observed: AlphaScreen signal
Method: AlphaScreen counter screen
Sample: His6 peptide without bromodomain
Tested at: 50 µM
Notes: assay interference check
| SMILES | inhibition [%] |
| --- | --- |
| C=CCn1c(=O)c2cnc(Nc3ccc(N4CCN(C)CC4)cc3)nc2n1-c1cccc(C(C)(C)O)n1 | 20.1 |
| N#CC(=Cc1c(F)cccc1F)c1nc2ccccc2s1 | 18.5 |
| COc1cc(Nc2ncc3c(n2)-c2ccc(Cl)cc2C(c2c(F)cccc2OC)=NC3)ccc1C(=O)O | 17.1 |
| Cc1ccc(NC(=O)c2cccc(N(C)C)c2)cc1NC(=O)c1ccc(O)cc1 | 37.6 |
| Nc1nc(Nc2cccc(Cl)c2)c2nc[nH]c2n1 | 30.7 |
| CNc1nc(-c2ccc3c(N)n[nH]c3c2)cc(N2C[C@@H](C(=O)NC3CCCCC3)CC[C@H]2C)n1 | 59.1 |
| O=C(Nc1cc(Cl)ccc1C(=O)O)c1ccc2c(c1)C(=O)N(Cc1cccnc1)C2=O | 7.3 |
| O=C1Nc2ccccc2C1=Nc1sc2c(c1C(=O)Nc1ccccc1)CCCC2 | 20.6 |
| Oc1cccc(-c2nc(N3CCOCC3)c3sccc3n2)c1 | 54.6 |
| O=c1[nH]cnc2ccc(NC(=S)Nc3cccc4ccccc34)cc12 | 20.3 |
| COc1cc2c(Oc3ccc(NC(=O)C4(C(=O)Nc5ccc(F)cc5)CC4)cc3F)ccnc2cc1OCCCN1CCOCC1 | 49.4 |
| O=C(Nc1cccc(Nc2ncc(Br)c(NCCc3cnc[nH]3)n2)c1)N1CCCC1 | 34 |
| Cc1cn(-c2cc(NC(=O)c3ccc(C)c(Nc4nccc(-c5cccnc5)n4)c3)cc(C(F)(F)F)c2)cn1 | 32.6 |
| CCOC(=O)CCNc1ccc(Nc2ccc(C)cc2)c2c1C(=O)c1ccccc1C2=O | 90.5 |
| O=c1cc(-c2ccc(O)cc2)oc2cc(O)cc(O)c12.O=c1cc(-c2ccc(O)cc2)oc2cc(O)cc(O)c12 | 21.3 |
| CN(C)C/C=C/C(=O)Nc1cc2c(Nc3ccc(F)c(Cl)c3)ncnc2cc1O[C@H]1CCOC1 | 24.6 |

Series 2
Target: Serine/threonine-protein kinase D2 (PRKD2, Homo sapiens, UniProt Q9BZL6)
UniProt Q9BZL6, sequence (whole entry, looked up): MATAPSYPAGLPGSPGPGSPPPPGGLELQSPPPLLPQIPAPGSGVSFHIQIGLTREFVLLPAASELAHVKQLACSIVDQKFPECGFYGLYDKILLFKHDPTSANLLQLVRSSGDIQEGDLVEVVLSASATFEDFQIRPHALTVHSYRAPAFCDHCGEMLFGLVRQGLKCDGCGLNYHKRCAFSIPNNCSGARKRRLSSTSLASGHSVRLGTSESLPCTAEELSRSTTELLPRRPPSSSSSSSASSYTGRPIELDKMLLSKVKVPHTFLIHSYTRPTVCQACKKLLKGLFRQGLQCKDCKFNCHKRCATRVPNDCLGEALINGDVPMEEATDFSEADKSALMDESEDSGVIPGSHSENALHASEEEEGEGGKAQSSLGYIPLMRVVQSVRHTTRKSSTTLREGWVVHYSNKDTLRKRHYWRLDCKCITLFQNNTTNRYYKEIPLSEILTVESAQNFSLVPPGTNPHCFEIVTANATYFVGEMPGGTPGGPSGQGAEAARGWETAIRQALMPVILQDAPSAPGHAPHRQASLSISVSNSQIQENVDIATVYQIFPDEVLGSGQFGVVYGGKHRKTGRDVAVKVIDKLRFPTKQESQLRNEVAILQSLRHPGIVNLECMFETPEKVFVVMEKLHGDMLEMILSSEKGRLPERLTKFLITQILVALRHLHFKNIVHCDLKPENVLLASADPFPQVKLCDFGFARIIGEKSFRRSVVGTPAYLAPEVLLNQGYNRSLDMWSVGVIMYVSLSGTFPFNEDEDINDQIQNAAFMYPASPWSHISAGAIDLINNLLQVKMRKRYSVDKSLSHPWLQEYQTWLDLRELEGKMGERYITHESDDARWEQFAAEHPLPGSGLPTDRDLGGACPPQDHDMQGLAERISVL
Observed: enzyme activity
Mode: inhibitor
Tested at: 0.5 µM
Reference: control
| SMILES | remaining activity [%] |
| --- | --- |
| Clc1ccc(Nc2nnc(Cc3ccncc3)c3ccccc23)cc1 | 86 |
| CC(C)N(CCC(=O)c1ccc2ccccc2c1)Cc1ccccc1 | 98.5 |
| CC(C)(C)c1nc2c3cc[nH]c(=O)c3c3cc(F)ccc3c2[nH]1 | 6.13 |
| N#C/C(=C(/N)SC1C=CC=CC1)c1cccc(C(O)c2ccncc2)c1 (stereo not drawn) | 90 |
| c1cc(-c2cnn3cc(-c4ccc(OCCN5CCCCC5)cc4)cnc23)ccn1 | 88.3 |
| O=Nc1c(-c2c(O)[nH]c3ccccc23)[nH]c2ccccc12 | 89 |
| N#CC(c1ccnc(NCCc2cccnc2)n1)c1nc2ccccc2s1 (stereo not drawn) | 79.2 |
| O=C(O)/C=C/c1cc(Br)c(Br)c(Br)c1Br | 71.6 |
| O=C(c1ccccc1)c1ccc(N2CCOCC2)cc1O | 99.1 |
| CCCCc1c(-c2ccc(O)cc2)[nH]c2nccnc12 | 95.3 |
| COc1cc2c(Nc3ccc(Br)cc3F)ncnc2cc1OCC1CCN(C)CC1 | 92 |
| CCN(CC)CCCCN1c2ccccc2Oc2ccc(Cl)cc21 | 105 |
| CNc1cc2c(Nc3cccc(Br)c3)ncnc2cn1 | 86.4 |
| O=C1NC(=O)/C(=C/c2ccc3c(c2)OC(F)(F)O3)S1 | 91.5 |
| NC(=O)c1ccc(-c2nc(-c3ccc4c(c3)OCCO4)c(-c3ccccn3)[nH]2)cc1 | 83.4 |
| O=C1c2ccccc2-c2nc3nnnn3nc21 | 91.7 |
| NC(=O)c1cccc(-c2cc(Nc3ccc(OC(F)(F)F)cc3)ncn2)c1 | 102 |
| C[C@@H](N)[C@H]1CC[C@H](C(=O)Nc2ccncc2)CC1 | 96.3 |
| O=c1c(-c2ccc(F)cc2)c(-c2ccncc2)[nH]n1-c1ccc(Cl)cc1 | 73.4 |
| CC(C)n1cnc2c(Nc3cccc(Cl)c3)nc(NCCO)nc21 | 88.1 |
| Nc1nc(Nc2ccc(S(N)(=O)=O)cc2)nn1C(=S)Nc1c(F)cccc1F | 9.05 |
| FC(F)(F)c1ccc(/C=C/c2nc(COc3ccc(CCCCn4ccnn4)cc3)co2)cc1 | 96.9 |

Series 3
SMILES: C[C@H](c1ccnc(Nc2nc3ccc(-c4cc(N(C)C)ncn4)cc3[nH]2)c1)N1CCN(C(=O)CC(F)(F)F)CC1
MAP2K5: Dual specificity mitogen-activated protein kinase kinase 5 (MAP2K5, Homo sapiens, UniProt Q13163)
UniProt Q13163, sequence (whole entry, looked up): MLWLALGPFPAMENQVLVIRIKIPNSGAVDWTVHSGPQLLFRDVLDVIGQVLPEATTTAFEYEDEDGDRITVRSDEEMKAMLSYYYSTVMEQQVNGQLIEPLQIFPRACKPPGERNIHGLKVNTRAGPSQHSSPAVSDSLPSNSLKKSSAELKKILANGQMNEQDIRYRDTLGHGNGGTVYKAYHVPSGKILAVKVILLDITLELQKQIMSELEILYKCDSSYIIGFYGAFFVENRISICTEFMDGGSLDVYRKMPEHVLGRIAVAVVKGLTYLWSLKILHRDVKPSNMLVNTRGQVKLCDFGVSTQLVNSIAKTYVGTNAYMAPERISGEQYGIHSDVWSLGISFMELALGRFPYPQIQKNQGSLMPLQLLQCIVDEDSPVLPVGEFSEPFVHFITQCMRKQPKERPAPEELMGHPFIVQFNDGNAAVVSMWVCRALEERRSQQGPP
MAP3K19: Mitogen-activated protein kinase kinase kinase 19 (MAP3K19, Homo sapiens, UniProt Q56UN5)
UniProt Q56UN5, sequence (whole entry, looked up): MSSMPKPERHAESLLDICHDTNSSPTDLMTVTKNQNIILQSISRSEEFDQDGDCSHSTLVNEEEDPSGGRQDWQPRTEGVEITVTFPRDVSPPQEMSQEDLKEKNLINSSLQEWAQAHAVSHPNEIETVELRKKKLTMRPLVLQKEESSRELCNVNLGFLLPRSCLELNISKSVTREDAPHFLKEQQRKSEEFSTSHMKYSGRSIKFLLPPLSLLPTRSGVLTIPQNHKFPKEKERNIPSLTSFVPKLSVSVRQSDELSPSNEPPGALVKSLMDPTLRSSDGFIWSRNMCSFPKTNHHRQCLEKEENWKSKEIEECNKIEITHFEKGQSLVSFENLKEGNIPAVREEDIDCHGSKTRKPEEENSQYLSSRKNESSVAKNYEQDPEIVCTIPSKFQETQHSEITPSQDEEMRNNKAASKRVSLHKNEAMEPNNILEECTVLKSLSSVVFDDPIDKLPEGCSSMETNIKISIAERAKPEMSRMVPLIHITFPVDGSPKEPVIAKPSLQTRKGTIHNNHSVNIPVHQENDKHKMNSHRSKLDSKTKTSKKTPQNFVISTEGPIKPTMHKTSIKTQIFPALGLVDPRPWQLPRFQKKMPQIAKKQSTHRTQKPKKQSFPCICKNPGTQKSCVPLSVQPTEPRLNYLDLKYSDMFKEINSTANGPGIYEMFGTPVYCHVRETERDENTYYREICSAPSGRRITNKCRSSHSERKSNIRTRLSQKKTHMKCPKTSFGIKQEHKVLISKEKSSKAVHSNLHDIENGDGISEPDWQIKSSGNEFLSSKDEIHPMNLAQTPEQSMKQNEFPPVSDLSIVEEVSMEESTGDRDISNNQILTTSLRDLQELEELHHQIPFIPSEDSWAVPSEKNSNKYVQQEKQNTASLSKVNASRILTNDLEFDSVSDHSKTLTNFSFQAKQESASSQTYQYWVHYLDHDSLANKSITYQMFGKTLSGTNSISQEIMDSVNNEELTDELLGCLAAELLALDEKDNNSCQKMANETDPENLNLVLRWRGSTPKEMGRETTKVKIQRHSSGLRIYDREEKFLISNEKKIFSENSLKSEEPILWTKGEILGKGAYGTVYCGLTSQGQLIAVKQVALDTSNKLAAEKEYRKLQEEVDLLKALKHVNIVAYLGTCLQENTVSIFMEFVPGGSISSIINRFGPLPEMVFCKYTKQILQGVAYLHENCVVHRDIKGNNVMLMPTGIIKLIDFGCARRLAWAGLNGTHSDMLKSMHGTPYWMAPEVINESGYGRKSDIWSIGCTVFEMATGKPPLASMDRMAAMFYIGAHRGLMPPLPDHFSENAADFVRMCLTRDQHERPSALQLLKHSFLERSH
IKBKE: Inhibitor of nuclear factor kappa-B kinase subunit epsilon (IKBKE, Homo sapiens, UniProt Q14164)
UniProt Q14164, sequence (whole entry, looked up): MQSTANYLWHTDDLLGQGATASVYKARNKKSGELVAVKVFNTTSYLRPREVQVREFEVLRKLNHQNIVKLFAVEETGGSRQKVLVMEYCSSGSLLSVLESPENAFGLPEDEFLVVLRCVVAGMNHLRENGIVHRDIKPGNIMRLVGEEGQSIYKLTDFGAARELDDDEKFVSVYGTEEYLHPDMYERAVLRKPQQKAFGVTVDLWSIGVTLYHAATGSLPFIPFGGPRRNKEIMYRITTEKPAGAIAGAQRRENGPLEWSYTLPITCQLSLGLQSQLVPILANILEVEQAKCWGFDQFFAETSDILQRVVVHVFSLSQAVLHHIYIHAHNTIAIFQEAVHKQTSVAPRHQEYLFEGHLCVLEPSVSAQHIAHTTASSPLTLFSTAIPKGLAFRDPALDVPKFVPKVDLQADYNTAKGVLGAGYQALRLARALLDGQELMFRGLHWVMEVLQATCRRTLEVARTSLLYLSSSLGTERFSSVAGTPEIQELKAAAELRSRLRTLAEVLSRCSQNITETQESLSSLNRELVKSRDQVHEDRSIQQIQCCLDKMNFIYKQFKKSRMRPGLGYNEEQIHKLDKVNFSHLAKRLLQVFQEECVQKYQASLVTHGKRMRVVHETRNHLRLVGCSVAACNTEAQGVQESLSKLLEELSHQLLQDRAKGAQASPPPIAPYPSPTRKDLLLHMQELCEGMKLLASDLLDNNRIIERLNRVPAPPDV
STK17A: Serine/threonine-protein kinase 17A (STK17A, Homo sapiens, UniProt Q9UEE5)
UniProt Q9UEE5, sequence (whole entry, looked up): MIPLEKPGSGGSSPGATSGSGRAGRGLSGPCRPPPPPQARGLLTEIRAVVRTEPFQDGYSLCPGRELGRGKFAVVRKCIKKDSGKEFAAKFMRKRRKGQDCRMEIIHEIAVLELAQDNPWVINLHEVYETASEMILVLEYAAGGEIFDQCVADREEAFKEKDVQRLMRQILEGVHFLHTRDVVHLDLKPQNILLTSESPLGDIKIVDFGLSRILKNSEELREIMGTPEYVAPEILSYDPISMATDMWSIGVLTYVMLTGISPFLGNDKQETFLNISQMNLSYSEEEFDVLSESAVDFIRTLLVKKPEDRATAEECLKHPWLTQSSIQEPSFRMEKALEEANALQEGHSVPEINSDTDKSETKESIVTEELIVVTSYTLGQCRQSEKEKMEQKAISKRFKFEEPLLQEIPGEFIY
| target | assay | test system | EC50 |
| --- | --- | --- | --- |
| MAP2K5 | target engagement, NanoBRET | live cells | > 50 µM |
| MAP3K19 | target engagement, NanoBRET | live cells | > 50 µM |
| MAP3K19 | target engagement, NanoBRET |  | > 50 µM |
| MAP3K19 | target engagement in cells, BRET |  | > 50 µM |
| Receptor-type tyrosine-protein kinase FLT3 (FLT3, Homo sapiens, UniProt P36888) | target engagement, NanoBRET | live cells | 18.3 µM |
| IKBKE | target engagement, NanoBRET | live cells | 0.947 µM and 0.144 µM |
| MAP2K5 | target engagement, NanoBRET |  | > 50 µM |
| MAP2K5 | target engagement in cells, BRET |  | > 50 µM |
| STK17A | target engagement, NanoBRET | live cells | 1.44 µM and 9.49 µM and 3.46 µM |
| IKBKE | target engagement in cells, BRET |  | 0.42 µM |
| STK17A | target engagement in cells, BRET |  | 4.8 µM |

Series 4
Host: human
Sample: microsomes or S9
Tested at: 2 µM
Time: 0.5 h
| SMILES | remaining compound [%] |
| --- | --- |
| O=C(CCCSc1ccc(NC(=O)C2CC2)nn1)Nc1cnc2ccccc2c1 | > 99 |
| CN(C)C1(CNC(=O)C(O)c2ccccc2Cl)CCCCC1 (stereo not drawn) | 90 |
| CCCN1C(=O)c2c(C(=O)NCc3ccc(N(C)C)cc3)ncn2CC1(C)C(=O)NCc1ccc(F)cc1 (stereo not drawn) | 25.5 |
| O=C(/C=C/c1ccc(O)cc1)NCCc1ccc(O)cc1 | > 99 |
| CC1=C(COc2ccc3ccc(=O)oc3c2)[C@@]2(C)CCC(=O)C(C)(C)[C@@H]2CC1 | 0.214 |
| CCCC(=O)CSc1[nH]c(=O)cc(C)c1C#N | 93.3 |
| Fc1cccc(F)c1COCC1CON=C(c2cccs2)O1 (stereo not drawn) | 51.5 |
| COc1cc2c(cc1OC)-c1cc(-c3cc(C#N)n(C)c3C)c(C#N)c(=N)n1CC2 | 92.3 |
| COC(=O)c1c(CS(=O)(=O)c2ccccc2)n(S(=O)(=O)c2ccccc2)c2ccccc12 | 4.24 |
| CC(C)=CCc1c2ccoc2c(O)c2oc(=O)ccc12 | 58.4 |
| N=c1sc2cc(OC(F)(F)F)ccc2n1CCO | 73.2 |
| CCN(CC)S(=O)(=O)c1cc(C(=O)N2CCN(Cc3cnn(C)c3)CC2)c(Cl)cc1Cl | 2.71 |
| Cn1c2c(c(=O)c3cc(Oc4ccccc4)ccc31)CCC2 | 13 |
| CC[S+]([O-])C1CCCCC1NC(=O)NC1CC(C)(C)OC1(C)C (stereo not drawn) | 82.3 |
| CCCC1CCc2c(sc(NC(=O)c3ccccc3)c2C(=O)O)C1 (stereo not drawn) | > 99 |
| COc1ccc(C(=O)N2C[C@@H](NC(=O)N(C)C)[C@H](C(C)C)C2)c(OC)n1 | > 100 |
| CN(C)CCN1C(=O)C2CC=C(Cl)CC2C1=O (stereo not drawn) | 50.9 |
